Assay results of several laboratories.
Every numbered part comes from another study and shows a few of its results, in no order.
Sequence of UniProt P10721 (whole entry, unmodified, looked up): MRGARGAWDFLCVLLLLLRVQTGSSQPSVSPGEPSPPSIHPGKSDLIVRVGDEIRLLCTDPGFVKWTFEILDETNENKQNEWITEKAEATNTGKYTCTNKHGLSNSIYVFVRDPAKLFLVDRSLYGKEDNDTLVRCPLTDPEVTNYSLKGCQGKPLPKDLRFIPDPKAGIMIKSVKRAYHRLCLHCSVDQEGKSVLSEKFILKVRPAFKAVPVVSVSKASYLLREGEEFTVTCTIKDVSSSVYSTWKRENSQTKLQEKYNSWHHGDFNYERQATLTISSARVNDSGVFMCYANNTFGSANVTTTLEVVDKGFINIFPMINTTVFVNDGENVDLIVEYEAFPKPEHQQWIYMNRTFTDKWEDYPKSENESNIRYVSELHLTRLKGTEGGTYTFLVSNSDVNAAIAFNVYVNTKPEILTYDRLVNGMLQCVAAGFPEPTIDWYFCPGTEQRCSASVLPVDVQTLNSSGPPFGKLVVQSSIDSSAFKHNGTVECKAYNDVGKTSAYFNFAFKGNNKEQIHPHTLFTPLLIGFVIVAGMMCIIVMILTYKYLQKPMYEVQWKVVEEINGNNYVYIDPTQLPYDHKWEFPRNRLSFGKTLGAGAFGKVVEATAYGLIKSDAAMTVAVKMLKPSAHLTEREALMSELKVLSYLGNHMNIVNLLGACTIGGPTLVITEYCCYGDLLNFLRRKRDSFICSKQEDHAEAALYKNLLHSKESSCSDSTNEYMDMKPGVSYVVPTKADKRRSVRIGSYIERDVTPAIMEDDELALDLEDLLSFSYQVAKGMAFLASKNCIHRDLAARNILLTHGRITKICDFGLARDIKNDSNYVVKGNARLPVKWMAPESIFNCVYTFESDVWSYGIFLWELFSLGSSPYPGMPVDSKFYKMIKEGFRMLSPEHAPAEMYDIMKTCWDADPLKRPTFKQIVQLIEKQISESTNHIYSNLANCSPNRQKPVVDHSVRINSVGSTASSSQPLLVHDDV
Sequence of UniProt Q13546 (whole entry, looked up): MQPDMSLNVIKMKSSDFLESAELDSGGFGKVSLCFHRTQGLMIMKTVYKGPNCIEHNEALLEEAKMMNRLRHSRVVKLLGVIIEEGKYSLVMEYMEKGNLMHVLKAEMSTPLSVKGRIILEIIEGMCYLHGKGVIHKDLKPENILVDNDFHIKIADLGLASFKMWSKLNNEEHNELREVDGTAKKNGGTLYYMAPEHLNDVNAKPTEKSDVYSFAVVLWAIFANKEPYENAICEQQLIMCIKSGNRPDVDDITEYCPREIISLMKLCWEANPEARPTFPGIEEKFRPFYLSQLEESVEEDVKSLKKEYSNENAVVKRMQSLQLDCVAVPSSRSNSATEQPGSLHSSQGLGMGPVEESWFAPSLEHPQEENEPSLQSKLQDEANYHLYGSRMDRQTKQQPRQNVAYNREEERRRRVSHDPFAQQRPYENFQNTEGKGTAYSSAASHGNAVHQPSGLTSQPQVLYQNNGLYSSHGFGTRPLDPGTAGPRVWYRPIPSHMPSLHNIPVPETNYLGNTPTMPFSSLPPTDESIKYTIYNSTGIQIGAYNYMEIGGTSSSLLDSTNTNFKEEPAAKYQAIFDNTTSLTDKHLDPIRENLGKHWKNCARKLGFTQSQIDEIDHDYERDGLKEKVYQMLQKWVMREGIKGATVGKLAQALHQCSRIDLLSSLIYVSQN
Sequence of UniProt Q13976 (whole entry, looked up): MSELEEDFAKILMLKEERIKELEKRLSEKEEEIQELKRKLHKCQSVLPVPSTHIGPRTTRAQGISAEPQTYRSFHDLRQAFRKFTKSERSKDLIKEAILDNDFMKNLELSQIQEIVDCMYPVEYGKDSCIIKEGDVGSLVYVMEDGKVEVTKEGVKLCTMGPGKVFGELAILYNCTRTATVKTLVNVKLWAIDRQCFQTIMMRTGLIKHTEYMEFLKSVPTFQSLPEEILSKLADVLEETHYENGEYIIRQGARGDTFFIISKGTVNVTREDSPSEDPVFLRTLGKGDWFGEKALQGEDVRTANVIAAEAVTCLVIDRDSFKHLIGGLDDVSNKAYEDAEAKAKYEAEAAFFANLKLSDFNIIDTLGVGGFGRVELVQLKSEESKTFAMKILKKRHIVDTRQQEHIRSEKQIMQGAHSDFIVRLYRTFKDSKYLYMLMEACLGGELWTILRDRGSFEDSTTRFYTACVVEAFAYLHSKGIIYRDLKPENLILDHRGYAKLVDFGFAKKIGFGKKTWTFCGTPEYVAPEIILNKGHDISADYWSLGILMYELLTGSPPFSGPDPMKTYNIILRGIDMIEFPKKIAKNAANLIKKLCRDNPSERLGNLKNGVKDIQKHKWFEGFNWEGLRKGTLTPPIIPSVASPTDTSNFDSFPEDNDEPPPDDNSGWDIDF

Series 1
Target: Protein C-ets-1 (ETS1, Homo sapiens, UniProt P14921, residues 1-441, K379A, full length assumed)
Technique: protein-binding microarray
Form: double-stranded DNA, one strand shown
Matrix: in vitro
Tested at: not given
Setting: k-mer, scored over probes, only values ≥0.25
Direction: higher = stronger binding
Target sequence (chain): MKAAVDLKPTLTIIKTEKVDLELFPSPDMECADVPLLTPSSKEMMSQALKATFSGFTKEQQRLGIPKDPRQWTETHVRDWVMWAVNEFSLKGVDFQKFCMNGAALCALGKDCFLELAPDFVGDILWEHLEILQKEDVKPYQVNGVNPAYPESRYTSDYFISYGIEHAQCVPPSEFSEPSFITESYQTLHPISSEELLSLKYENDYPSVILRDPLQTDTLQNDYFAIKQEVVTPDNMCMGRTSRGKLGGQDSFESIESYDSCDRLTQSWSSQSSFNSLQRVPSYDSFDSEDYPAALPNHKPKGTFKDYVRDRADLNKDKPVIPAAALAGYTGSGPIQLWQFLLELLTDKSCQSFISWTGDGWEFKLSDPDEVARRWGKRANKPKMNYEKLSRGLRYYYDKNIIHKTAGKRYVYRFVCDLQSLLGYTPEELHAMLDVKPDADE
`CCGACAGG` gave an E-score of 0.322.
The E-score of `CCGGCGGA` is reported as 0.392.
For `CCCGGCAA`, the E-score was 0.303.
For `TATACCGA`, the E-score was 0.262.
With `AGGAAATG` the E-score was 0.263.
`ACCGGCAT` gave an E-score of 0.342.
With `CCGGAATC` the E-score was 0.283.
For `ATTAACCG`, the E-score was 0.301.

Series 2
Target: TAR DNA-binding protein 43, full length, His tag (TARDBP, Homo sapiens, UniProt Q13148, residues 1-414)
Technique: RNA Bind-n-Seq
Form: RNA
Matrix: in vitro
Tested at: 20 nM
Setting: 6-mer, flanks averaged, single round
With: 150 mM LiCl
Baseline: input library
Direction: higher = stronger binding
`AUUUUU`: “6-mer enrichment (R)” 1.48.
Under “6-mer enrichment (R)”, `UUUAGC` is recorded as 1.
`UAAUUU`: “6-mer enrichment (R)” 1.11.
`UGACUC`: “6-mer enrichment (R)” 0.858.
For `GUAAUC`, “6-mer enrichment (R)” read 0.861.
`UACUGU` — result for “6-mer enrichment (R)”: 0.97.
Under “6-mer enrichment (R)”, `ACCCUC` is recorded as 0.988.
`AACUUG` — result for “6-mer enrichment (R)”: 0.885.

Series 3
Target: Serine/threonine-protein kinase Nek9 (NEK9, Homo sapiens, UniProt Q8TD19)
Sequence of UniProt Q8TD19 (whole entry, looked up): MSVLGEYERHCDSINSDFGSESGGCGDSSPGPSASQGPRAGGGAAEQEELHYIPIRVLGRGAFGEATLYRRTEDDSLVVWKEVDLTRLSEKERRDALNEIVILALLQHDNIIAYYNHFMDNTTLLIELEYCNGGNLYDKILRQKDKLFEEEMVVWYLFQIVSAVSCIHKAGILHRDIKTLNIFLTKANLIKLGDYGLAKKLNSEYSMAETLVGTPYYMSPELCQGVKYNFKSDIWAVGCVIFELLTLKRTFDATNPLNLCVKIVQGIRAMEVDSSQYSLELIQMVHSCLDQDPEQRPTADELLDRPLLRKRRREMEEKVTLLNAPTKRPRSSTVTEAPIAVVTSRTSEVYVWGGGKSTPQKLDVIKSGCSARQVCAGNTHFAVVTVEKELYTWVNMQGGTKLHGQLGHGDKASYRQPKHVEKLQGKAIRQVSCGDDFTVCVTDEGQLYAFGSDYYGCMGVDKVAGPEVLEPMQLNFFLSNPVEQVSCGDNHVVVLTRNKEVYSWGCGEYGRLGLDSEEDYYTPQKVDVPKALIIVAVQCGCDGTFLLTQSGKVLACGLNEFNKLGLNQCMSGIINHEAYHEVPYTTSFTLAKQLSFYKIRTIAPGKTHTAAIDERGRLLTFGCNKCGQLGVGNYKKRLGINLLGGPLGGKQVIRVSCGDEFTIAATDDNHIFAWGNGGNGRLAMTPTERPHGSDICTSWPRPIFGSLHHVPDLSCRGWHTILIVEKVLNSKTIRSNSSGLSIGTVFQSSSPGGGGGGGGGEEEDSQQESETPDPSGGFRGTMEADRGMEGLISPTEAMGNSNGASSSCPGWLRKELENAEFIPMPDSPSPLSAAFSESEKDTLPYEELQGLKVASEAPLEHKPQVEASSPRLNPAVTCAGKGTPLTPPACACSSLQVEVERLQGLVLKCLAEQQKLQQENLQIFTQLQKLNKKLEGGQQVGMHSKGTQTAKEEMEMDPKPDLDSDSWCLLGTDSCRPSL
Observed: enzyme activity
Mode: inhibitor
Tested at: 0.5 µM
Baseline: control
O=C1C(Cl)=C(N2C(=O)CCC2=O)C(=O)c2ccccc21 has a remaining activity of 98.3%.
With c1ccc(-c2cnc(Nc3ccc(OCCN4CCCC4)cc3)s2)cc1 the remaining activity was 101%.
Cc1cn(-c2cc(NC(=O)c3ccc(C)c(Nc4nccc(-c5cccnc5)n4)c3)cc(C(F)(F)F)c2)cn1 gave a remaining activity of 98.5%.
The remaining activity of COc1cc2ncnc(Nc3cccc(Cl)c3)c2cc1OC is reported as 82.6%.
The remaining activity of c1ccc(-c2[nH]ncc2-c2ccnc3ccccc23)nc1 is reported as 94.7%.
Nc1cccc(-c2cc3c(Oc4cccc(O)c4)ncnc3[nH]2)c1 gave a remaining activity of 103%.
With O=c1cc(-c2cccc3c2Sc2ccccc2S3)oc(N2CCOCC2)c1 the remaining activity was 110%.
With CCN(CC)CCNC(=O)c1c(C)[nH]c(/C=C2\C(=O)Nc3ccc(F)cc32)c1C the remaining activity was 100%.
O=C1c2ccccc2-c2n[nH]c3cccc1c23 has a remaining activity of 97%.
COc1cc2c(cc1OC)-c1[nH]nc(Nc3cccc(F)c3)c1C2 gave a remaining activity of 102%.
For CCN(CC)CCNC(=O)c1c(C)[nH]c(/C=C2\C(=O)Nc3ccc(Cl)cc32)c1C, the remaining activity was 95.9%.
For COc1cc2ncnc(Nc3ccc(O)c(Br)c3)c2cc1OC, the remaining activity was 104%.

Series 4
SMILES: CC(=O)C1=C(C)N(c2cccc(C(F)(F)F)c2)C(=O)N[C@@H]1c1ccc(C#N)nc1
Observed: cell-free assay
Technique: competition with immobilised ligand
Tested at: 1 µM
For KIT (Homo sapiens, UniProt P10721, T670I/V559D): remaining binding read 96.7%.
The remaining binding was 85.8% (RIPK1 (Homo sapiens, UniProt Q13546)).
The remaining binding was 45.5% (PRKG1 (Homo sapiens, UniProt Q13976)).

Excerpt of the above (series 3):
COc1cc2c(cc1OC)-c1[nH]nc(Nc3cccc(F)c3)c1C2 gave a remaining activity of 102%.
O=C1C(Cl)=C(N2C(=O)CCC2=O)C(=O)c2ccccc21 has a remaining activity of 98.3%.
For CCN(CC)CCNC(=O)c1c(C)[nH]c(/C=C2\C(=O)Nc3ccc(Cl)cc32)c1C, the remaining activity was 95.9%.
The remaining activity of COc1cc2ncnc(Nc3cccc(Cl)c3)c2cc1OC is reported as 82.6%.
